{"data": "Values quoted from earlier work as cited in several papers", "note": "Protocols differ between the studies behind these lines. ± marks the error that the study gave."}
{"Structure (SMILES)": "Oc1cccc(-c2cccc(O)n2)n1.[Cl-].[Cl-].[Ru+2].c1cnc2c(c1)c1c(c3cccnc32)OCCO1.c1cnc2c(c1)c1c(c3cccnc32)OCCO1", "measurement": "pKa1", "result": 5}
{"Structure (SMILES)": "CCCCCCC[C@@H](CC(=O)O)OC(=O)C[C@@H](CCCCCCC)O[C@@H]1O[C@@H](C)[C@H](O)[C@@H](O)[C@H]1O", "setting": "pH 8", "measurement": "CMC", "result": "79 ± 3 µM"}
{"Structure (SMILES)": "CCCCCCc1ccc(Oc2ccccc2C#N)c(O)c1", "system": "mouse", "setting": "40 mg/kg", "measurement": "Cmax", "result": "280 ng/mL"}
{"Structure (SMILES)": "CC(C)S(=O)(=O)c1ccc(S(=O)(=O)C(C)C)c(O)c(=O)c1O", "measurement": "pKa1", "result": 2.2}
{"Structure (SMILES)": "CC(C)OC(=O)[C@H](CO)NCc1cc(Cl)c(OCc2cccc(-c3ccccc3)c2Br)cc1OCc1cccnc1", "system": "human liver S9", "setting": "40 min", "measurement": "transformation", "result": "100%"}
{"Structure (SMILES)": "C=C[C@@H]1C[C@]1(NC(=O)[C@@H]1C[C@@H](Oc2ncc(OC)c3c(Cl)cccc23)CN1C(=O)[C@@H](NC(=O)OC(C)(C)C)C(C)(C)C)C(=O)NS(=O)(=O)C1CC1", "system": "isolated perfused rabbit heart", "setting": "10 µM, time not given", "measurement": "sinus node recovery time change", "result": "104%"}
{"Structure (SMILES)": "Cc1ccccc1-c1cc(N2CCNCC2)ncc1N(C)C(=O)C(C)(C)c1cc(C(F)(F)F)cc(C(F)(F)F)c1", "system": "healthy volunteers, plasma", "setting": "oral, 450 mg, single dose, given alone", "measurement": "AUC(0-inf)", "result": "8180 ng·h/mL"}
{"Structure (SMILES)": "COc1cc2c(c(OC)c1OC)-c1c(cc(OC)c(OC)c1OC)C[C@](C)(O)[C@@H](C)C2", "system": "rat", "setting": "oral, purified compound", "measurement": "oral bioavailability", "result": "16%"}
{"Structure (SMILES)": "CN(C)c1ccc(-c2cc3cc(I)ccc3o2)cn1", "system": "liver", "setting": "2 min", "measurement": "tissue uptake", "result": "31.7 ID%/g"}
{"Structure (SMILES)": "O=C([O-])CN(CCN(CC(=O)[O-])CC(=O)NCCc1c[nH]c2ccc(O)cc12)CCN(CC(=O)[O-])CC(=O)NCCc1c[nH]c2ccc(O)cc12.[Gd+3]", "system": "PBS", "setting": "40 °C, 0.47 T", "measurement": "relaxivity r1", "result": "4.3 mM⁻¹ s⁻¹"}
{"Structure (SMILES)": "CNc1c(C)n(C)n(-c2ccccc2)c1=O", "system": "rabbit liver microsomes", "setting": "with: NADPH", "measurement": "demethylation share", "result": "< 50%"}
{"Structure (SMILES)": "CC(C)CCC[C@@H](C)[C@H]1CC[C@H]2[C@@H]3CC=C4C[C@@H](OS(=O)(=O)O)CC[C@]4(C)[C@H]3CC[C@]12C", "setting": "sulfate group", "measurement": "pKa", "result": "~3.3"}
{"Structure (SMILES)": "CCN(CC)C(=O)c1ccc(-c2c3ccc(=[N+](C)C)cc-3sc3cc4c(cc23)C(C)(C)CCN4C)s1", "system": "methanol", "measurement": "absorption maximum", "result": "597 nm"}
{"Structure (SMILES)": "COc1cc2c(NC3CCN(C)CC3)nc(N3CCCN(C)CC3)nc2cc1OCc1ccccc1", "system": "simulated gastric fluid", "setting": "pH 2", "measurement": "kinetic solubility", "result": "> 100 µg/mL"}
{"Structure (SMILES)": "CCN(CC)c1ccc(-c2cc3c(s2)c(C(=O)OC)cc(=O)n3C)cc1", "system": "dichloromethane", "setting": "10 µM", "measurement": "emission maximum", "result": "562 nm"}
{"Structure (SMILES)": "CCC1=C(C)c2cc3[nH]c(cc4nc(c5c6[nH]c(cc1n2)c(C)c6C(=O)C5)[C@@H](CCC(=O)OC)[C@@H]4C)c(C)c3C(C)OCc1cccc([124I])c1 (stereo partly drawn)", "system": "mice with Colon 26 tumours, tumour", "setting": "24 h", "measurement": "tumour uptake", "result": "4 to 5 % injected dose"}
{"Structure (SMILES)": "COCCOCCOCCOCCC(=O)NCc1cc(CNC(=O)CCOCCOCCOCCOC)cc(-c2cc3cc4nc(c(OC)c5[nH]c(cc6nc(cc2[nH]3)CC6(C)C)cc5-c2cc(CNC(=O)CCOCCOCCOCCOC)cc(CNC(=O)CCOCCOCCOCCOC)c2)CC4(C)C)c1", "system": "PBS", "setting": "room temperature", "measurement": "Qy absorption FWHM", "result": "22 nm"}
{"Structure (SMILES)": "COc1ccc(SC2=CC(=O)C(=O)c3c(-c4c(C)cccc4C)cn(S(=O)(=O)c4ccccc4)c32)cc1", "system": "aqueous buffer with 20% DMSO", "measurement": "solubility", "result": "2.9 µM"}
{"Structure (SMILES)": "Cc1[nH]nc2c1N=C(c1ccccc1Cl)c1cnc(N3CCOCC3)cc1N2", "system": "patients", "setting": "dose not given, 7 dose cohorts", "measurement": "tolerability", "result": "not toxic"}
{"Structure (SMILES)": "C=CC(=O)Nc1cc(Nc2nccc(-c3cn(C)c4ccccc34)n2)c(OCC(F)(F)F)nc1N(C)CCN(C)C", "system": "human", "setting": "80 mg", "measurement": "Cmax at steady state", "result": "108 nM"}
{"Structure (SMILES)": "O=S(=O)(c1ccccc1)N1CCCCC1", "system": "HCl buffer", "setting": "24 h, pH 1", "measurement": "recovery", "result": "100%"}
{"Structure (SMILES)": "C=C[C@@H]1C[C@]1(NC(=O)[C@@H]1C[C@@H](Oc2ncc(OC)c3ccccc23)CN1C(=O)[C@@H](NC(=O)OC(C)(C)C)C(C)(C)C)C(=O)NS(=O)(=O)C1CC1", "system": "rat", "setting": "oral, 15 mg/kg", "measurement": "oral bioavailability", "result": "20%"}
{"Structure (SMILES)": "CC(=O)c1cnc(N)nc1N1CC[C@H]1c1nn2ccc(Cl)c2c(=O)n1-c1ccccc1", "system": "female Wistar rat", "setting": "intravenous, 2.5 mg/kg", "measurement": "plasma clearance", "result": "3.3 ± 0.1 mL/min/kg"}
{"Structure (SMILES)": "CN1CCc2nc(C(=O)N[C@@H]3C[C@@H](C(=O)N(C)C)CC[C@@H]3NC(=O)C(=O)Nc3ccc(Cl)cn3)sc2C1", "system": "human", "measurement": "share of total clearance by metabolism", "result": "~10%"}
{"Structure (SMILES)": "Cc1ccc2c(c1)nc(CCN1C(=O)c3cccc4cccc(c34)C1=O)n2-c1ccncc1", "system": "Sprague-Dawley rat", "setting": "intravenous, 2.5 mg/kg", "measurement": "clearance", "result": "39 ± 7.83 mL/min/kg"}
{"Structure (SMILES)": "CC1(C)S[C@@H]2[C@H](NC(=O)c3c(-c4c(F)cccc4Cl)noc3CO)C(=O)N2[C@H]1C(=O)O", "system": "healthy volunteers", "setting": "dose not given", "scale": "baseline: fluoxetine", "measurement": "plasma concentration", "result": "~10%"}
{"Structure (SMILES)": "CC(C)Sc1ccc(SC(C)C)c(O)c(=O)c1O", "measurement": "pKa1", "result": 4.8}
{"Structure (SMILES)": "Nc1ncnc2c1ncn2[C@H]1C[C@H](O)[C@@H](COP(=O)(O)OP(=O)(O)[C@@H](F)P(=O)(O)O)O1", "test": "measured: bisphosphonate leaving group", "system": "aqueous solution", "setting": "measured experimentally", "measurement": "pKa4", "result": 9}
{"Structure (SMILES)": "O=C([O-])CN1CCN(CC(=O)[O-])CCN(Cc2cc(C#Cc3ccc(OCC(=O)O)cc3)cc(C(=O)[O-])n2)CCN(CC(=O)[O-])CC1.[Eu+3]", "measurement": "Eu3+ emission quantum yield", "result": 0.17}
{"Structure (SMILES)": "COC(=O)C(c1ccccc1Cl)N1CCC(SCC(=O)c2cccc(OC)c2)C(=CC(=O)O)C1 (mixture of isomers)", "system": "human", "setting": "concentration not given", "measurement": "Cmax", "result": "18 to 30 ng/mL"}
{"Structure (SMILES)": "C=C[C@@H]1C[C@]1(NC(=O)[C@@H]1C[C@@H](Oc2cc(-c3ccccc3)nc3cc(OC)ccc23)CN1C(=O)[C@@H](NC(=O)OC(C)(C)C)C(C)(C)C)C(=O)NS(=O)(=O)C1CC1", "system": "rat, liver", "setting": "oral, 20 mg/kg, 4 h", "measurement": "concentration", "result": "5800 nM"}
{"Structure (SMILES)": "Cc1ccccc1-c1cc(N2CC[N+](C)([O-])CC2)ncc1N(C)C(=O)C(C)(C)c1cc(C(F)(F)F)cc(C(F)(F)F)c1", "system": "healthy volunteers, plasma", "setting": "oral, dose not given, netupitant-palonosetron, fasted", "measurement": "Cmax", "result": "202 ng/mL"}
{"Structure (SMILES)": "Oc1ccc2ccccc2c1/N=N/c1ccccc1", "setting": "phenolic hydroxyl", "measurement": "pKa", "result": 11.7}
{"Structure (SMILES)": "O=C1C2=C(CCN(Cc3ccccc3)C2)N2CCN=C2N1Cc1ccc(C(F)(F)F)cc1", "system": "rats", "setting": "oral, 50 mg/kg", "measurement": "AUC(0-t)", "result": "8010 ng·h/mL"}
{"Structure (SMILES)": "C=CC1CC1(NC(=O)C1CC(Oc2nccc3cc(OC)ccc23)CN1C(=O)C(NC(=O)OC(C)(C)C)C(C)(C)C)C(=O)O (stereo not drawn)", "system": "isolated perfused rabbit heart", "setting": "10 µM", "measurement": "heart rate change", "result": "-26%"}
{"Structure (SMILES)": "CN1CCN(c2cc(-c3ccccc3CO)c(N(C)C(=O)C(C)(C)c3cc(C(F)(F)F)cc(C(F)(F)F)c3)cn2)CC1", "system": "healthy volunteers, plasma", "setting": "oral, 450 mg, single dose, with: palonosetron 0.75 mg", "measurement": "AUC(0-inf)", "result": "7930 ng·h/mL"}
{"Structure (SMILES)": "O=S(=O)(O)CCN(CCS(=O)(=O)O)c1ccccc1", "system": "water", "setting": "10 µM", "measurement": "pKa", "result": 3.1}
{"Structure (SMILES)": "Cc1ccccc1-c1cc(N2CC[N+](C)([O-])CC2)ncc1NC(=O)C(C)(C)c1cc(C(F)(F)F)cc(C(F)(F)F)c1", "system": "urine", "setting": "intravenous, concentration not given, dosed as palonosetron", "scale": "baseline: dose", "measurement": "urinary excretion", "result": "11.5%"}
{"Structure (SMILES)": "CN(Cc1nc2c(N)nc(N)nc2[nH]c1=O)c1ccc(C(=O)NC(CCC(=O)O)C(=O)O)cc1 (stereo not drawn)", "system": "patients on methotrexate", "setting": "dose not given, conventional-dose methotrexate", "measurement": "plasma detection", "result": "not detected"}
{"Structure (SMILES)": "Cc1ccc(OCC(=O)O)cc1", "system": "female rat", "setting": "oral, 30 mg/kg of parent drug, measured as metabolite", "measurement": "Cmax", "result": "9730 ng/mL"}
{"Structure (SMILES)": "C=C[C@@H]1C[C@]1(NC(=O)[C@@H]1C[C@@H](Oc2nccc3c(OC)cccc23)CN1C(=O)[C@@H](NC(=O)OC(C)(C)C)C(C)(C)C)C(=O)NS(=O)(=O)C1CC1", "system": "rat", "setting": "dose not given", "measurement": "clearance", "result": "6 mL/min/kg"}
{"Structure (SMILES)": "Cc1ccc(O)c(CN(CCN(Cc2ccccn2)Cc2ccccn2)Cc2ccccn2)c1", "setting": "25 °C", "measurement": "pKa1", "result": 4.11}
{"note": "Some of these lines once more:"}
{"Structure (SMILES)": "Oc1cccc(-c2cccc(O)n2)n1.[Cl-].[Cl-].[Ru+2].c1cnc2c(c1)c1c(c3cccnc32)OCCO1.c1cnc2c(c1)c1c(c3cccnc32)OCCO1", "measurement": "pKa1", "result": 5}
{"Structure (SMILES)": "CC(C)S(=O)(=O)c1ccc(S(=O)(=O)C(C)C)c(O)c(=O)c1O", "measurement": "pKa1", "result": 2.2}
{"Structure (SMILES)": "CC(C)OC(=O)[C@H](CO)NCc1cc(Cl)c(OCc2cccc(-c3ccccc3)c2Br)cc1OCc1cccnc1", "system": "human liver S9", "setting": "40 min", "measurement": "transformation", "result": "100%"}
